Published values gathered from unrelated publications.
Protocols differ between the studies behind these lines. Values joined by “and” are separate records of one study, mostly repeats; a detail may differ.
Target: Serine/threonine-protein kinase PAK 2 (PAK2, Homo sapiens, UniProt Q13177)

COc1c(OCCCN2CCOCC2)ccc2c1N=C(NC(=O)c1cnc(N)nc1)N1CCN=C21 — remaining activity (kinase activity, inhibitor; 1 µM; baseline: untreated control): 128%
C=CC(=O)N1Cc2nc(-c3cc(-c4cc(Cl)cnc4Cl)c(F)cc3F)n(-c3ccncn3)c2C1 — inhibition (cell-free assay, inhibitor; 1 µM): -0.8%
CS(=O)(=O)Nc1cccc(-c2csc3cnc(Nc4ccc(N5CCN(CCCCCOc6cccc7c6C(=O)N(C6CCC(=O)NC6=O)C7=O)CC5)cc4)nc23)c1 (stereo not shown) — inhibition (kinase probe labelling, binder, KiNativ ATP-acylphosphate LC-MS; MOLT-4 live cells; 1 µM): -2.87%
CC(=O)N1c2ccc(-c3ccc(CNC(=O)c4cn5cc(-c6cnc(N)nc6)nc(N6CCOCC6)c5n4)cc3)cc2CC[C@@H]1C — remaining binding (KINOMEscan; 10 µM): 100%
CC(C)=CC1OC(C)(C)C2C=C3C(=O)C(Cl)=CC(O)C3C3C(O)C4OC4C(=O)C132 (stereo not shown) — remaining binding (cell-free assay, competition with immobilised ligand; 10 µM): 95%
CCN1CCN(Cc2ccc(C(=O)Nc3ccc(C)c(NCc4cnc5[nH]ccc5c4OC)c3)cc2C(F)(F)F)CC1 — remaining binding (binding, competition with immobilised ligand; 1 µM): 80%
CNC1C[S+]2CC[S+]3CC[S+](C1)[Ru-4]321([N]=C=S)[n]2c3ccc(OC)cc3c3c4c(c5cc(F)c[n+]1c5c32)C(=O)NC4=O (stereo not shown) — remaining binding (KinomeScan; 0.1 µM; baseline: untreated): 100%
O=c1c(-c2ccc(Cl)c(CN3CCOCC3)c2)coc2cc(O)ccc12 — remaining activity (enzyme activity, inhibitor; 1 µM): 104%
Cc1ccc(-c2c(/C=C(\C#N)C(=O)NC(C)C)n(CCCO)c3ncnc(N)c23)cc1 — remaining binding (cell-free assay, competition with immobilised ligand; 1 µM): 91%
CNS(=O)(=O)Nc1nccc(Cc2c(C)c3ccc(Oc4ncccc4F)cc3oc2=O)c1F — remaining binding (cell-free assay, competition with immobilised ligand; 10 µM): 81%
Cc1cccc(O[C@H]2CCC[C@@H](C(C)CNCc3ccncc3)C2)c1 (relative stereo) — inhibition (enzyme activity, inhibitor; 1 µM): 2%
C=CC(=O)Nc1cccc(-c2cnc3[nH]cc(C(=O)NC(C)(C)C)c3n2)c1 — inhibition (kinase activity; 0.1 µM): 3% and 2%
NC(=O)C[C@H]1CCc2sc3ncnc(O[C@H]4CC[C@H](N5CCOCC5)CC4)c3c21 — inhibition (enzyme activity, inhibitor; 10 µM): 2%
COc1cc(-n2cc3cc(F)cc(C(N)=O)c3n2)cc(Cl)c1C1CC(O)(CCO)Cc2ccccc21 (stereo not shown) — inhibition (enzyme activity, inhibitor; 10 µM): 0.85%
COc1ccc(NC(=O)Nc2ccc3c(c2)C(=O)N(C(C)CO)CC(C)C(CN(C)Cc2ccc4c(c2)OCO4)O3)cc1 (stereo not shown) — remaining activity (kinase activity, KinaseProfiler; 0.03 µM, species human; baseline: control): 90%
C=CC(=O)N1CCCC(n2c(=O)c3ncccc3n(Cc3ccc(Oc4ccccc4)cc3)c2=O)C1 (stereo not shown) — remaining binding (cell-free assay, competition with immobilised ligand; 1 µM): 83%
Cc1nc2c(F)cc(-c3nc(Nc4ccc(CNC(=O)CCCCCCC(=O)NO)cc4)ncc3F)cc2n1C(C)C — inhibition (enzyme activity, inhibitor; 1 µM): 68%
COc1cc(Nc2nc(C)cc(-c3cnn4nc(OC)ccc34)n2)cc(C(F)(F)F)c1 — remaining activity (inhibitor; 1 µM; baseline: control): 75%
C=CC(=O)N1CCc2ccc(-n3c(=O)ccc4cnc5ccc(-c6cnn(C)c6)cc5c43)cc21 — remaining binding (KINOMEscan; 1 µM; baseline: DMSO control): 100%
CNC(=O)C[C@H](Cc1ccc(C#N)cc1)NC(=O)c1cc(-c2ccc(CN[C@H](C)c3ccc(C)cc3)o2)ccc1Cl — activity vs control (enzyme activity, inhibitor; 1 µM): 100%
CN1CCN(Cc2ccc(NC(=O)c3cccc(C#Cc4cnc(N)c5ncccc45)c3)cc2C(F)(F)F)CC1 — remaining binding (cell-free assay, competition with immobilised ligand; 0.5 µM): 100%
C[C@H]1CN(C(=O)c2cn(-c3ccnc(N)n3)c3cc(C#CC4(O)CCCCC4)ccc23)CCN1 — inhibition (enzyme activity, inhibitor, FRET; 1 µM): 36%
